{"data": "Assay results gathered from unrelated publications", "note": "Compare with care: the assays were run in different laboratories. ± gives the spread as reported."}
{"SMILES": "O=C(COc1ccc(Cl)cc1)NC12CC(c3nnc([C@H]4C[C@@H](OC(F)(F)F)C4)o3)(C1)C2", "test system": "human both sexes", "setting": "oral, 145 mg once daily, 14 days", "endpoint": "participants maximum mild TEAE", "result": "85.7%"}
{"SMILES": "CCc1nc(C(N)=O)c(Nc2ccc(N3CCC(N4CCN(C)CC4)CC3)c(OC)c2)nc1NC1CCOCC1", "test system": "Japanese patients, plasma", "setting": "oral, 80 mg, cycle 0 day -2, single dose, mean", "endpoint": "AUC(0-24)", "result": "1050 ng·h/mL"}
{"SMILES": "N#Cc1ccc2c(c1)[C@H]1CCCN(C(=O)c3ccc4[nH]cnc4c3)[C@H]1C2", "test system": "human males", "setting": "160 mg, end of trial", "endpoint": "DHEA-S level", "result": "7.9 µmol/L"}
{"SMILES": "CN(C(=O)n1cnc(-c2cccnc2)c1)C1CCCCC1", "test system": "Wistar rat, cerebellum", "setting": "oral, 10 mg/kg/day of BIA 10-2474, 72 h, repeated 5 days", "endpoint": "concentration", "result": "5.9 ± 0.3 ng/g"}
{"SMILES": "CNC(=O)c1ccc(-c2cnc3ncc(Cc4ccc5ncccc5c4)n3n2)cc1F", "test system": "healthy human subjects", "setting": "oral, dose not given, all grades, together with: rifampicin", "how to read": "reference: subjects", "endpoint": "treatment-related headache incidence", "result": "11.5%"}
{"SMILES": "c1csc(CNc2cc[nH]n2)c1", "tested on": "human peripheral blood lymphocytes, female", "setting": "1130 µg/mL, 4 h, without S9", "endpoint": "cells with structural aberrations", "result": "0.5%"}
{"SMILES": "COc1c(O[C@@H]2O[C@H](CO)[C@@H](O)[C@H](O)[C@H]2O)c(C)cc2c1C(=O)c1c(O)cccc1C2=O", "tested on": "HK-2 co-cultured with HepaRG", "test": "MTT", "setting": "33.33 µM, 24 h", "how to read": "reference: untreated control", "endpoint": "cell viability", "result": "76 ± 6.81%"}
{"SMILES": "CC[C@H](C)[C@H](NC(=O)[C@H](CCCNC(=N)N)NC(=O)[C@H](CCC(=O)O)NC(C)=O)C(=O)N[C@H]1CSSC[C@@H](C(=O)N[C@H](C(N)=O)[C@@H](C)O)NC(=O)[C@H](CCCNC(=N)N)NC(=O)[C@H](Cc2c[nH]cn2)NC(=O)[C@H](C)NC(=O)CNC(=O)[C@H](Cc2c[nH]c3ccccc23)NC(=O)[C@H](CC(=O)O)NC(=O)[C@H](CCC(N)=O)NC(=O)[C@H](Cc2c[nH]c3ccccc23)NC(=O)[C@H](C(C)C)NC1=O", "test": "RP-HPLC, C18", "test system": "28% acetonitrile isocratic", "setting": "pH 7.4", "endpoint": "retention factor", "result": "0.62 ± 0.015"}
{"SMILES": "O=C(O)CCC(=O)O.[2H]C([2H])([2H])Oc1cc(C)c2[nH]ccc2c1CN1CC[C@@H](C2CC2)C[C@H]1c1ccc(C(=O)O)cc1", "test": "multiple ascending dose", "test system": "healthy Chinese subjects", "setting": "125 mg twice daily", "endpoint": "subjects with hyperuricaemia", "result": "0%"}
{"SMILES": "O=C(Nc1cnccc1Cl)N1CCN(Cc2ccc3c(c2)OC(F)(F)O3)CC1", "test system": "elderly men and women, plasma", "setting": "oral, 100 mg once daily, day 1", "endpoint": "AUC(0-24)", "result": "6130 ng·h/mL"}
{"SMILES": "O=C(Nc1nc2cccc(-c3ccc(CN4CCS(=O)(=O)CC4)cc3)n2n1)C1CC1", "test": "measured: investigations", "test system": "human rheumatoid arthritis patients", "setting": "oral, 150 mg once daily, 4 weeks, regardless of relatedness", "endpoint": "treatment-emergent adverse events", "result": "0%"}
{"SMILES": "Cc1nn(CC(F)(F)F)cc1Nc1nccc(NCCc2cnc[nH]2)n1", "test": "PAMPA", "test system": "PBS", "setting": "5 h, pH 7.4", "endpoint": "effective permeability", "result": "0.0623 ×10⁻⁶ cm/s"}
{"SMILES": "CN(CCCNC(=O)c1cccc(C(=O)O)c1)CCCNC(=O)c1cc(NC(=O)c2cc(NC(=O)c3cc(NC(=O)c4nc(NC(=O)C[C@@H](N)CNC(=O)c5cc(NC(=O)c6cc(NC(=O)c7cc(NC(=O)c8nccn8C)cn7C)cn6C)cn5C)cn4C)cn3C)cn2C)cn1C", "test": "dynamic light scattering", "test system": "0.1% DMSO in PBS", "setting": "25 °C", "endpoint": "critical aggregation concentration", "result": "4 µM"}
{"SMILES": "N#CCNC(=O)c1ccc(-c2ccnc(Nc3ccc(N4CCOCC4)cc3)n2)cc1", "test system": "healthy volunteers, plasma", "setting": "oral, dose not given, together with: ritonavir multiple-dose", "how to read": "reference: compound alone", "endpoint": "Cmax increase", "result": "23%"}
{"SMILES": "COc1c(O)c(C)cc2c1C(=O)c1c(ccc(O)c1O)C2=O", "tested on": "HK-2 co-cultured with HepaRG", "test": "MTT", "setting": "16.67 µM, 24 h", "how to read": "reference: untreated control", "endpoint": "viability", "result": "99.7 ± 11.7%"}
{"SMILES": "O=C(CCCCCCC(=O)Nc1ccc(CC[18F])cc1)NO", "test system": "athymic nu/nu male mice, LNCaP xenograft, kidney", "setting": "intravenous, 2 h", "endpoint": "tissue uptake", "result": "5.7 ± 1.2 %ID/g"}
{"SMILES": "CC(C)(C(=O)N1CCOc2c(C#N)cncc2C1)C(F)F", "test": "measured: eye disorders", "test system": "human", "setting": "oral, 20 mg once daily, 14 days, multiple ascending dose", "endpoint": "subjects with adverse event", "result": "0%"}
{"note": "For quick reference, copied from above:"}
{"SMILES": "O=C(Nc1nc2cccc(-c3ccc(CN4CCS(=O)(=O)CC4)cc3)n2n1)C1CC1", "test": "measured: investigations", "test system": "human rheumatoid arthritis patients", "setting": "oral, 150 mg once daily, 4 weeks, regardless of relatedness", "endpoint": "treatment-emergent adverse events", "result": "0%"}
{"SMILES": "Cc1nn(CC(F)(F)F)cc1Nc1nccc(NCCc2cnc[nH]2)n1", "test": "PAMPA", "test system": "PBS", "setting": "5 h, pH 7.4", "endpoint": "effective permeability", "result": "0.0623 ×10⁻⁶ cm/s"}
